{"data": "Results from different studies", "note": "Compare with care: the assays were run in different laboratories. ± gives the spread as reported."}
{"Compound": "Cc1c(-c2ccc(N3CCc4cccc(C(=O)Nc5nc6ccccc6s5)c4C3)nc2C(=O)O)cnn1CC12CC3(C)CC(C)(C1)CC(OCCNCC[C@H](O)CO)(C3)C2", "system": "beagle dog, male, anaesthetised", "setting": "intravenous infusion, 0.3 mg/kg/min, 90 min", "scale": "baseline: vehicle", "measurement": "QTcV interval change", "value": "16 ms"}
{"Compound": "Cc1c(C(=O)Nc2ccc(N3C[C@@H](C)O[C@@H](C)C3)nc2)cccc1-c1ccc(OC(F)(F)F)cc1", "assay": "PK model", "system": "mouse", "setting": "oral, 40 mg/kg/day", "measurement": "central volume of distribution", "value": "46.2 mL"}
{"Compound": "Cc1ccc2ccc(C(=O)O)c(O)c2n1", "measurement": "pKa (acidic)", "value": 5.5}
{"Compound": "CC(C)n1c(Nc2cccnc2)nc2cnc(Nc3ccc(N4CCN(C)CC4)cc3)nc21", "assay": "refers to: diastolic blood pressure increased", "system": "healthy male subjects", "setting": "oral, 100 mg, study, added: gemfibrozil", "measurement": "subjects with adverse event", "value": "7.1%"}
{"Compound": "FC(F)(F)c1ccc(CNc2ccc(Cc3c[nH]c4ncc(Cl)cc34)cn2)cn1", "assay": "refers to: Dysgeusia", "system": "patients with advanced solid tumours, non-TGCT cohort", "setting": "oral, 1000 mg/day, grade 3 or higher", "measurement": "treatment-related adverse events", "value": "0%"}
{"Compound": "O=C(N[C@H](Cc1c[nH]c2ccccc12)C(=O)Nc1ccncc1)c1ccc(N2CCN(c3ccc(F)cc3F)CC2)cc1F", "system": "Swiss Webster mouse, female, fat", "setting": "oral, 50 mg/kg, 2 h, 20% HPβCD vehicle", "measurement": "concentration", "value": "120 nM"}
{"Compound": "COCc1cc(C(=O)Nc2cc([C@H]3CC[C@@H](OC(=O)NC(C)C)C3)[nH]n2)n(C)n1", "system": "OVCAR-3 xenograft, NOD/SCID gamma mice, plasma", "setting": "oral, 175 twice daily, tumour growth inhibition study", "measurement": "unbound Cmax", "value": "7370 nM"}
{"Compound": "O=C(O)CNC(=O)c1ncccc1O", "measurement": "pKa (acidic)", "value": 3.2}
{"Compound": "O=C(CCCN1CC=C(n2c(=O)[nH]c3ccccc32)CC1)c1ccc(F)cc1", "system": "male Hartley guinea pigs, anaesthetized", "setting": "intravenous, 0.3 mg/kg group, baseline before infusion", "measurement": "mean blood pressure", "value": "37 ± 0.1 mmHg"}
{"Compound": "CN(CC#N)C(=O)C[C@H](Nc1nc2ccccc2[nH]1)c1cccc(C(F)(F)F)c1", "system": "human", "setting": "intravenous infusion, 1.5 mg/kg, 1 mg/mL formulation", "measurement": "apparent volume of distribution", "value": "70.6 ± 12.8 L"}
{"Compound": "C=CC(=O)Nc1cc(Nc2nccc(-c3cn(C)c4ccccc34)n2)c(OC)cc1N(C)CCN(C)C", "system": "human patients", "setting": "oral, cycle 3 day 1, monotherapy, mean", "measurement": "CLss/F", "value": "14.5 L/h"}
{"Compound": "C[C@@H](Nc1cc(F)cc(F)c1)c1cc(C(=O)N(C)C)cc2c(=O)cc(N3CCOCC3)oc12", "assay": "CTCAE v4, refers to: confusional state", "system": "patients with advanced solid tumours", "setting": "oral, dose not given, phase I dose finding", "measurement": "patients discontinuing for AE", "value": "1.6%"}
{"Compound": "C#Cc1cccc(Nc2ncnc3cc(OCCOC)c(OCCOC)cc23)c1", "system": "brain over plasma", "setting": "100 mg/kg, 2 h", "scale": "baseline: unbound brain over unbound plasma", "measurement": "Kp,uu", "value": 0.3}
{"Compound": "C=CC(=O)NC1CCN(c2ncc3ncnc(Nc4ccc(Oc5ccc6c(c5)ncn6C)c(C)c4)c3n2)CC1", "assay": "refers to: psychiatric disorders (SOC)", "system": "human male", "setting": "oral, dose not given, CTCAE on-treatment AEs", "measurement": "adverse events incidence", "value": "0%"}
{"Compound": "CCCCC[C@H](O)CC[C@@H]1[C@H]2Cc3cccc(OCC(=O)O)c3C[C@H]2C[C@H]1O", "assay": "LC-MS/MS", "system": "Japanese CTD-associated PAH patients, plasma", "setting": "inhaled, 54 µg", "measurement": "geometric mean AUC(0-last)", "value": "0.58 ng·h/mL"}
{"Compound": "CN(C)c1ccc2c(c1)c(=O)n(-c1ccc(C[C@H](NC(=O)c3c(Cl)cccc3Cl)C(=O)O)cc1)c(=O)n2C", "system": "cynomolgus monkey, plasma", "measurement": "unbound fraction", "value": 0.013}
{"Compound": "CCOc1c([C@H](C)n2nc(C)c3c(N)ncnc32)cc(Cl)c(F)c1[C@@H]1CNC(=O)C1", "system": "patients, monotherapy", "setting": "oral, 45 mg once daily, cycle 1 day 15", "measurement": "Cmax geometric mean", "value": "4960 nM"}
{"Compound": "C[C@@H]1COCCN1c1cc(C2([S@](C)(=N)=O)CC2)nc(-c2cc[nH]c3nccc2-3)n1", "system": "Japanese advanced solid tumour patients", "setting": "oral, 240 mg twice daily, CTCAE grade ≥3", "measurement": "Vomiting incidence", "value": "0%"}
{"Compound": "COc1ccc2c(c1)CN(C(=O)CCN1CCC(Cc3ccccc3)CC1)CC[S@@+]2[O-]", "assay": "telemetry", "system": "conscious male beagle dogs", "setting": "intravenous, 2 mg/kg, 0.5 h", "measurement": "systolic blood pressure", "value": "136 ± 7 mmHg"}
{"Compound": "C[C@H]1CNC(=O)c2cnn3ccc(nc23)N[C@H](C)c2cc(F)ccc2O1", "system": "Balb/c nude mice, female, plasma", "setting": "oral, 75 mg/kg twice daily, 1 h, steady state", "measurement": "unbound concentration", "value": "81 ± 24 nM"}
{"Compound": "Cc1nc2ccc(OCc3ccc(C(F)(F)F)cc3)cc2[nH]1", "system": "Balb/c mice, male, plasma", "setting": "intravenous, 1 mg/kg", "measurement": "Vz/F", "value": "2.29 ± 0.2 L/kg"}
{"Compound": "C=C1C(=O)O[C@H]2[C@H]1CC/C(C)=C/CC[C@@]1(C)O[C@@H]21", "tested on": "Toxoplasma gondii", "assay": "parasite growth, luciferase reporter", "system": "HFF, tachyzoite", "setting": "72 h", "measurement": "EC90", "value": "24.7 µM"}
{"Compound": "[18F]c1ccc(-c2ccc3c(c2)[nH]c2ccncc23)cn1", "assay": "ex vivo biodistribution", "system": "APP/PS1 mouse, AD model, cortex", "setting": "intravenous, 30 min", "measurement": "SUV", "value": "0.39 ± 0.118"}
{"Compound": "CNC(=O)c1ccc(-c2cnc3ncc(Cc4ccc5ncccc5c4)n3n2)cc1F", "assay": "refers to: Cough, all grades", "system": "cancer patients", "setting": "oral, dose not given, dose escalation, any causality", "measurement": "patients with adverse event", "value": "18%"}
{"Compound": "O=S(=O)(c1ccc(-c2ccc3nccc(Nc4ccncn4)c3c2)cc1)N1CCOCC1", "system": "female BALB/c mice, brain", "setting": "intraperitoneal, 10 mg/kg, 24 h, mean, below LLOQ as zero", "measurement": "brain concentration", "value": "0 ng/mL"}
{"Compound": "Cl.[2H]C([2H])([2H])CC(=O)c1cnc(NC(=O)C2CC2)cc1Nc1cccc(-c2ncn(C([2H])([2H])[2H])n2)c1OC", "system": "human, non-fasted", "setting": "oral, 60 mg once daily, day 14, multiple dose, tablet, geometric mean", "measurement": "half-life", "value": "9.56 h"}
{"Compound": "CC(C)(C(=O)N1CCOc2c(C#N)cncc2C1)C(F)F", "system": "human, both sexes", "setting": "oral, 30 mg single dose", "measurement": "subjects with myalgia TEAE", "value": "0%"}
{"Compound": "Cc1ccc(C(=O)N(CCCN)C(c2nc3snc(C)c3c(=O)n2Cc2ccccc2)C(C)C)cc1 (stereo not shown)", "system": "human patients", "setting": "intravenous, 2 mg/day", "measurement": "grade ≥3 hypokalemia patients", "value": "0%"}
{"Compound": "COc1ccc2nc(NC(=O)c3cc(=O)c4ccccc4o3)sc2c1", "system": "sheep erythrocytes", "setting": "1 h, pH 7.5", "measurement": "maximum haemolysis", "value": "8.3%"}
{"Compound": "CCCCOC(=O)N1CCN(C(=O)[C@H](CP(=O)(O)O)NC(=O)c2cc(N3CC[C@H](OC)C3)nc(-c3ccccc3)n2)CC1", "assay": "refers to: Chloride", "system": "human, blood", "setting": "16 mg, 24 h", "measurement": "change from baseline", "value": "0.3 ± 2.2 mmol/L"}
{"Compound": "Cc1c(Br)cc(NC(=O)C(c2ccccc2)S(=O)(=O)O)cc1Br (stereo not shown)", "system": "CD-1 mice, whole blood", "setting": "oral, 10 mg/kg", "measurement": "unbound Cmax", "value": "< 6 nM"}
{"Compound": "CC1(C)S[C@@H]2[C@H](NC(=O)[C@H](N)c3ccc(O)cc3)C(=O)N2[C@H]1C(=O)O", "system": "male Hartley guinea pigs, anaesthetized", "setting": "intravenous, 3 mg/kg group, baseline before infusion", "measurement": "mean blood pressure", "value": "38 ± 0.2 mmHg"}
{"Compound": "C[C@@H](N)C1CCN(S(=O)(=O)c2cccc3cnccc23)CC1", "system": "healthy volunteers", "setting": "75 mg, fasted", "measurement": "participants with hypotension", "value": "0%"}
{"Compound": "COc1cc2[nH]c(C)c(-c3ccc(C(=O)O)cc3)c(=O)c2cc1Cl", "system": "PAMPA", "setting": "pH 7.4", "measurement": "Papp", "value": "< 5 ×10⁻⁶ cm/s"}
{"Compound": "CNCCOC12CC3(C)CC(C)(CC(Cn4ncc(-c5ccc(N6CCc7cccc(C(=O)Nc8nc9ccccc9s8)c7C6)nc5C(=O)O)c4C)(C3)C1)C2", "system": "beagle dog, male, anaesthetised", "setting": "intravenous bolus, 0.03 mg/kg, 5 min", "scale": "baseline: baseline", "measurement": "QTcV interval change", "value": "-15 ms"}
{"Compound": "O=C(c1nc2n(n1)[C@H](c1ccccc1)C[C@@H]2F)C1CC1", "system": "human", "setting": "oral, 75 mg", "scale": "baseline: high-fat meal over fasted", "measurement": "AUC0-inf ratio", "value": 0.984}
{"Compound": "O=C1NCCc2nc(OCc3cccc(F)c3)ccc21", "assay": "refers to: Ptosis", "system": "Sprague-Dawley rat, male", "setting": "oral, 100 mg/kg, 1 h, score 0 none to 2 full", "scale": "direction not given", "measurement": "Irwin test score", "value": 0}
{"Compound": "N#C[C@@]12C[C@@H]1[C@@H](n1cnc3c(N[C@@H](C4CCC4)C4CC4)nc(I)nc31)[C@H](O)[C@@H]2O", "system": "Wistar rat, male, plasma", "setting": "oral, 3.0 mg/kg", "measurement": "Vd", "value": "177 L/kg"}
{"Compound": "Cc1cc(Nc2cc3ncccc3c(N[C@@H]3C[C@H]4CC[C@@H](C3)N4CCC#N)n2)n[nH]1", "system": "healthy human subjects", "setting": "oral, 100 mg, 2 weeks, single ascending dose", "measurement": "papular rash incidence", "value": "0%"}
{"Compound": "COc1cc2[nH]c(C)c(-c3ccc(C(C)=O)cc3)c(=O)c2cc1Cl", "system": "PAMPA", "setting": "pH 7.4", "measurement": "Papp", "value": "< 5 ×10⁻⁶ cm/s"}
{"Compound": "CO[C@H]1C[C@@H]2CC[C@@H](C)[C@@](O)(O2)C(=O)C(=O)N2CCCC[C@H]2C(=O)O[C@H]([C@H](C)C[C@@H]2CC[C@@H](OC(=O)NCCOCCOCCOCCOCCOCCOCCOCCOCCC(=O)N3CCc4cc(Cn5nc(-c6ccc7oc(N)nc7c6)c6c(N)ncnc65)ccc4C3)[C@H](OC)C2)C[C@@H](O)[C@H](C)/C=C(\\C)[C@@H](O)[C@@H](OC)C(=O)[C@H](C)C[C@H](C)/C=C/C=C/C=C/1C", "system": "mice, plasma", "setting": "intraperitoneal, 3 mg/kg, weekly dosing", "measurement": "unbound AUClast", "value": "0.053 to 0.21 µM·h"}
{"Compound": "COc1ccnc(CNC(=O)c2cn(Cc3ccc(Cn4ccccc4=O)cc3)nc2C(F)(F)F)c1F", "system": "rat, Sprague-Dawley, male, plasma", "setting": "intravenous, 1 mg/kg", "measurement": "plasma clearance", "value": "7.07 mL/min/kg"}
{"Compound": "COc1cc2c3c(n(CCCN4CCOCC4)c(=O)c2cc1OC)-c1cc2c(cc1C3=O)OCO2", "system": "beagle dog, male, plasma", "setting": "intravenous infusion, 50 mg/m^2, 1 h infusion, vehicle 2", "measurement": "CL", "value": "42.4 ± 26 L/h/m²"}
{"Compound": "Cc1ccc(C(=O)N(CCCN)[C@@H](c2oc3cc(Cl)ccc3c(=O)c2Cc2ccccc2)C(C)C)cc1", "tested on": "Toxoplasma gondii", "assay": "parasite growth, luciferase reporter", "system": "HFF, tachyzoite", "setting": "72 h", "measurement": "EC50", "value": "19.2 µM"}
{"Compound": "COC(=O)/C=C/c1cc(C(=O)NCc2ccc(C)cc2)cc(-c2ccc3ncnn3c2)c1", "system": "human, liver microsomes", "setting": "1 µg/mL, 60 min, pH 7.4, 0.5 mg/mL protein, added: NADPH", "measurement": "remaining parent compound", "value": "~25%"}
{"Compound": "CCCCc1oc2ccccc2c1C(=O)c1cc(I)c(OCCN(CC)CC)c(I)c1", "system": "male Hartley guinea pigs, anaesthetized", "setting": "intravenous, 5 mg/kg over 10 min, after infusion", "measurement": "mean blood pressure", "value": "35 ± 0.2 mmHg"}
